Measured values of several laboratories.
Numbers after ± are the reported error.

SMILES | tested on | assay | system | setting | how to read | quantity | value
CCn1cc(-c2cc(Cn3ccoc3=N)cc3c2CCN([C@@H](C)c2cc(OC)ccn2)C3=O)c(C(F)(F)F)n1 | HuH-1 | cell growth, inhibitor | – | 120 h | – | EC50 | > 30 µM
Cc1cn(-c2cc(NC(=O)c3ccc(C)c(Nc4nccc(-c5cccnc5)n4)c3)cc(C(F)(F)F)c2)cn1 | iCell Cardiomyocytes (hiPSC-derived) | CellTiter-Glo | – | concentration not given, 24 h | relative to: control | ATP level | 104%
CC(C)(C)c1cnc(CSc2cnc(NC(=O)C3CCN(C(=O)CCCCCCCN4Cc5cc6c(cc5C4)C(=O)N(C4CCC(=O)NC4=O)C6=O)CC3)s2)o1 (centres unmarked) | TC-71 | RNA-seq | – | 10 nM, 8 h | – | number of upregulated genes | 777 genes
COc1cnc2cccc(N3CCc4c(cc(Cn5ccnc5C)cc4-c4cn(C)nc4C(F)(F)F)C3=O)c2c1 | AN3-CA | cell growth, inhibitor | – | 120 h | – | EC50 | 10.3 µM
C[C@H]1CN(C2COC2)CCN1c1ccc(Nc2cc(-c3ccnc(N4CCn5c(cc6c5CC(C)(C)C6)C4=O)c3CO)cn(C)c2=O)nc1 | Ramos | calcium flux, FLIPR | – | 2 h preincubation | – | maximum inhibition | 91.1%
CN(C)C[C@@H]1CCn2cc(c3ccccc32)C2=C(C(=O)NC2=O)c2cn(c3ccccc23)CCO1 | iCell Cardiomyocytes (hiPSC-derived) | cellular impedance | – | concentration not given, 24 h | relative to: control | cell index | 100%
O=C(O)[C@H]1O[C@H](OP(=O)(O)OP(=O)(O)OC[C@H]2O[C@@H](n3ccc(=O)[nH]c3=O)[C@H](O)[C@@H]2O)[C@H](O)[C@@H](O)[C@@H]1O | – | binding, equilibrium dialysis LC-MS | – | 5 µM, thermostabilized A2AR-BRIL construct | relative to: no-protein control, direction not given | z-scored log2 fold change | 0.0362
CCn1cc(-c2cc(Cn3ccnc3)cc3c2CCN([C@H](c2cc(OC)ccn2)C2CC2)C3=O)c(C(F)(F)F)n1 | HCC15 | cell growth, inhibitor | – | 120 h | – | EC50 | > 30 µM
Clc1ccc(Nc2nnc(Cc3ccncc3)c3ccccc23)cc1 | iCell Cardiomyocytes (hiPSC-derived) | CellTiter-Glo | – | concentration not given, 24 h | relative to: control | ATP level | 98.5%
O=C(/C=C/C=C/C=C/C1CCCCC1)NC1=C[C@@](O)(/C=C/C=C/C=C/C(=O)NC2=C(O)CCC2=O)[C@@H]2O[C@@H]2C1=O | HCC827 | cell growth, CellTiter-Glo | – | 78 h | – | GI50 | 19.8 µM
CS(=O)(=O)N1CCN(Cc2cc3nc(-c4cccc5[nH]ncc45)nc(N4CCOCC4)c3s2)CC1 | iCell Cardiomyocytes (hiPSC-derived) | xCELLigence Cardio impedance | – | concentration not given, 2 h | relative to: control | beat amplitude | 109%
Nc1ncnc2c1ncn2[C@@H]1O[C@H](COP(=O)(O)OP(=O)(O)O)[C@@H](O)[C@H]1O | – | binding, equilibrium dialysis LC-MS | – | 5 µM, thermostabilized A2AR-BRIL construct | relative to: no-protein control, direction not given | z-scored log2 fold change | -0.584
N#CC[C@H](C1CCCC1)n1cc(-c2ncnc3[nH]ccc23)cn1 | iCell Cardiomyocytes (hiPSC-derived) | xCELLigence Cardio impedance | – | concentration not given, 2 h | relative to: control | beat amplitude | 105%
Cn1cc(-c2ccc(-c3cncc(Cl)c3N3CCC4(CCNC4=O)CC3)cc2)cn1 | COLO 205 | gene expression, microarray, item: EGFR mRNA | – | concentration not given, 2 h | relative to: untreated cells | log2 fold change | -1.51
OC1CCN(c2ccc(/C=N/NC(=S)NCCc3ccccc3)cc2)CC1 | BEAS-2B and A549 | MTT | – | – | relative to: IC50 BEAS-2B over IC50 A549 | selectivity ratio | 11.3
Clc1ccc(C2(c3ccc(-c4cn[nH]c4)cc3)CCNCC2)cc1 | SK-OV-3 | ATP | 3D spheroid culture | 10 µM, 4 days, added: GA-017 10 µM | relative to: DMSO | relative cell number | 138%
COC(=O)c1cc(C(C)=NNc2nc(-c3ccc4c(c3)OCCCO4)cs2)ccc1O | T47D | flow cytometry | – | 10 µM, 72 h | – | cells in S phase | 12.7 ± 1.18%
